Results collected from several papers.
Compare with care: the assays were run in different laboratories. Numbers after ± are the reported error.
Cell line: HEK293

Structure (SMILES)	test	setting	IC50
CN1CCCNC(=O)CC2(CCCCC2)CC(=O)NCCCN(C)CCCNc2cccc3c2C(=O)c2cccc(c2C3=O)NCCC1	cell growth or viability, CCK-8	48 h	6.3 µM
Fc1ccc(Nc2nc(NC3CCCCC3)c3ccccc3n2)cc1F	cAMP production, inhibitor, BRET	together with: isoproterenol 1 µM	~50 µM
CCCCCCCCCCCCCCCCOc1c(O)cc(C(=O)O[C@@H]2Cc3c(O)cc(O)cc3O[C@@H]2c2cc(O)c(O)c(O)c2)cc1O	cell growth or viability, CCK-8	24 h	> 150 µM
CCCC(CCC)C(=O)[O][Pt]([NH2])([NH2])([Cl])([Cl])[O]C(=O)c1ccccc1OC(C)=O	cell growth or viability, MTT	72 h	0.59 µM
Nc1ccccc1NC(=O)c1cnccn1	cell growth or viability, MTT	48 h	141 µM
Cc1cc(C)c(-n2c3c([n+](-c4c(C)cc(C)cc4C)[c]2[Cu-][Cl])-c2cccc4cccc-3c24)c(C)c1	cell growth or viability, MTT	72 h	1.1 µM
CC(=O)NCCCN(C)CCCNc1cccc2c1C(=O)c1cccc(NCCCN(C)CCCNC(C)=O)c1C2=O	cell growth or viability, CCK-8	48 h	0.9 µM
COC(=O)[C@@H]1CCCN1C(=O)[C@H](Cc1ccccc1)NC(=O)OC(C)(C)C	cell growth or viability, SRB		238 µM
[Cl][Au-][c]1n(-c2c(C(c3ccccc3)c3ccccc3)cc(C(c3ccccc3)c3ccccc3)cc2C(c2ccccc2)c2ccccc2)c2c([n+]1-c1c(C(c3ccccc3)c3ccccc3)cc(C(c3ccccc3)c3ccccc3)cc1C(c1ccccc1)c1ccccc1)-c1cccc3cccc-2c13	cell growth or viability, MTT	72 h	> 50 µM
Cc1ccc(-c2noc(-c3cccs3)c2C(F)(F)F)cc1	cell growth or viability, MTT	48 h	110 µM
CCn1cc(/C=C/c2sc3ccccc3[n+]2CC)c2ccccc21	cell growth or viability, MTT	24 h	12.8 µM
Cc1cc(NC(=O)[C@H](O)c2cc(F)cc(F)c2)ccc1-c1cnc(N)c(C(=O)NC(C)C)c1	Western blot, measured: ATF4	4 h, together with: 1 µM tunicamycin	0.088 µM
CCCCCCCCOc1c(O)cc(C(=O)O[C@@H]2Cc3c(O)cc(O)cc3O[C@@H]2c2cc(O)c(O)c(O)c2)cc1O	cell growth or viability, CCK-8	24 h	> 150 µM
N=C(N)NCCC[C@@H](NC(=O)[C@H](Cc1c[nH]cn1)NC(=O)[C@H](CO)NC(=O)[C@H](Cc1c[nH]c2ccccc12)NC(=O)[C@H](Cc1c[nH]cn1)NC(=O)[C@@H]1CCC(=O)N1)C(=O)N[C@@H](Cc1c[nH]c2ccccc12)C(=O)N[C@@H](Cc1ccc(O)cc1)C(=O)N1CCC[C@H]1C(=O)NCC(N)=O	cell growth or viability, SRB		0.0075 µM
CCN(CC)CCN1C(=O)c2ccc3c4cccc5c(NCCN)ccc(c6ccc(c2c36)C1=O)c54	cell growth or viability, SRB	72 h	204 µM
FC(F)(F)c1c(-c2ccc(Br)cc2)noc1-c1cccs1	cell growth or viability, MTT	48 h	112 µM
CCCC(CCC)C(=O)[O][Pt]([NH2])([NH2])([Cl])([Cl])[O]C(=O)C(C)c1ccc(CC(C)C)cc1 (centres unmarked)	cell growth or viability, MTT	72 h	0.47 µM
CCCCCCCCCCCCCCCCCC(=O)N[C@@H](CCCNC(=N)N)C(=O)N[C@@H](CCCNC(=N)N)C(=O)N[C@@H](CCCNC(=N)N)C(=O)N[C@@H](CCCNC(=N)N)C(=O)N[C@@H](CCCNC(=N)N)C(N)=O	cell growth or viability, resazurin		> 32 µg/mL

Structure (SMILES)	test	setting	IC50
CC(C)C[C@H](NC(=O)[C@@H](Cc1c[nH]c2ccccc12)NC(=O)[C@H](Cc1c[nH]cn1)NC(=O)[C@H](CO)NC(=O)[C@H](Cc1c[nH]c2ccccc12)NC(=O)[C@H](Cc1c[nH]cn1)NC(=O)[C@@H]1CCC(=O)N1)C(=O)N[C@@H](CCCNC(=N)N)C(=O)N1CCC[C@H]1C(=O)NCC(N)=O	cell growth or viability, SRB		0.0012 µM
C=C[CH2][Pd-]([Cl])[Cl].Cc1cc(C)c(-n2c[n+](-c3c(C)cc(C)cc3C)c3c2-c2cccc4cccc-3c24)c(C)c1	cell growth or viability, MTT	72 h	1.8 µM
CCCCCCCCCCCCCCCCCC(=O)N[C@@H](CCCCN)C(=O)N[C@@H](CCCCN)C(=O)N[C@@H](CCCCN)C(=O)N[C@@H](CCCCN)C(=O)N[C@@H](CCCCN)C(N)=O	cell growth or viability, resazurin		> 32 µg/mL
COc1cc(CNC(=O)C[C@H](C)CCC=C(C)C)ccc1OCc1cn(-c2ccc(Cl)c(Cl)c2)nn1	cytotoxicity		696 µM
O=C1c2ccc3c4cccc5cccc(c6ccc(c2c36)C(=O)N1CCN1CCCCC1)c54	cell growth or viability, SRB	72 h	247 µM
CC(=O)[C@@H]1CCCN1C(=O)[C@@H]1CCCN1C(=O)[C@H](Cc1ccccc1)NC(=O)OC(C)(C)C	cell growth or viability, SRB		273 µM
O=C(O[C@@H]1Cc2c(O)cc(O)cc2O[C@@H]1c1cc(O)c(O)c(O)c1)c1cc(O)c(O)c(O)c1	cell growth or viability, CCK-8	24 h	> 150 µM
COC(=O)[C@@H](NC(=O)[C@@H](NC(=O)[C@@H](NC(=O)OC(C)(C)C)C(C)C)C(C)C)C(C)C	cell growth or viability, SRB		145 µM
CC(C)Cc1ccc(C(C)C(=O)[O][Pt]([NH2])([NH2])([Cl])([Cl])[O]C(=O)CCCc2ccccc2)cc1 (centres unmarked)	cell growth or viability, MTT	72 h	0.13 µM
Cc1ccc(C(C)C)cc1.Cl.[Cl][Ru+].[Ru+].c1ccc(-c2cn(CCCCOc3ccccc3-c3nc4ccccc4s3)nn2)nc1	cytotoxicity, MTT	48 h	85.6 ± 2.5 µM
CCCCCCCCCC(=O)N[C@@H](Cc1ccccc1)C(=O)N[C@@H](Cc1ccccc1)C(=O)N[C@@H](Cc1ccccc1)C(=O)N[C@@H](Cc1ccccc1)C(=O)N[C@@H](CCCCN)C(=O)N[C@@H](CCCCN)C(=O)N[C@@H](CCCCN)C(=O)N[C@@H](CCCCN)C(=O)N[C@@H](CCCCN)C(N)=O	cell growth or viability, resazurin		> 32 µg/mL
CCN(CC)CCN1C(=O)c2ccc3c4cccc5c(N6CCNCC6)ccc(c6ccc(c2c36)C1=O)c54	cell growth or viability, SRB	72 h	197 µM
CC(=O)OC[C@H]1O[C@@H](n2cc(CSc3nc4ccccc4n3Cc3cn([C@@H]4O[C@H](COC(C)=O)[C@@H](OC(C)=O)C(OC(C)=O)[C@H]4OC(C)=O)nn3)nn2)[C@H](OC(C)=O)C(OC(C)=O)[C@@H]1OC(C)=O (stereo in doubt)	cell growth or viability, MTT		12.5 µg/mL
CC1(N)CCN(c2nc(N(Cc3ccccc3)Cc3ccccc3)nc3c2ncn3Cc2ccccc2)CC1	cell growth or viability, WST-1	72 h	5.6 µM
CCCCCCCCCCCCCCCCCCOc1c(O)cc(C(=O)O[C@@H]2Cc3c(O)cc(O)cc3O[C@@H]2c2cc(O)c(O)c(O)c2)cc1O	cell growth or viability, CCK-8	24 h	> 150 µM
CC(=O)Oc1ccccc1C(=O)[O][Pt]([NH2])([NH2])([Cl])([Cl])[O]C(=O)CCCc1ccccc1	cell growth or viability, MTT	72 h	0.11 µM
CC(C)c1cccc(C(C)C)c1-n1c2c([n+](-c3c(C(C)C)cccc3C(C)C)[c]1[Au-][Cl])-c1cccc3cccc-2c13	cell growth or viability, MTT	72 h	31 µM
